Results gathered from unrelated publications.
Values joined by “and” are separate records of one study, mostly repeats; a detail may differ.

Structure (SMILES) | assay | test system | setting | endpoint | value
C=CC(=O)Nc1cc(Nc2nccc(Nc3cc(Cl)c(F)cc3C(C)(C)O)n2)c(OC)cc1N1CC[C@@H](N(C)C)C1 | treatment-emergent adverse events | human | oral, 300 mg, phase I clinical trial | incidence of vomiting | 25.5%
COc1ncccc1-c1cnn2ccc(N3CCN(C(=O)OC(C)C)CC3)nc12 |  | mouse, open field test, brain | oral, 10 mg/kg, 60 min | drug concentration | 14 µM
CCN1[C@@H](C(=O)NC23CCC(C(=O)O)(CC2)CC3)[C@H](c2cccc(Cl)c2F)[C@]2(C(=O)Nc3cc(Cl)ccc32)C12CCCCC2 |  | patients with advanced solid tumours | oral, 150 mg | grade ≥3 Neutropenia incidence | 50%
CN1CCN(c2cccc3c2CCN(C(=O)/C=C/c2c(-n4cnnn4)ccc(Cl)c2F)[C@@H]3C(=O)Nc2ccc(C(=O)O)cc2)C(=O)C1 |  | healthy human subjects | intravenous infusion, 25 mg/h, 2 h | deaths | 0%
NCCCS(=O)(=O)O |  | human, plasma | oral, 265 mg | terminal half-life | ~14 h
O=C(c1ccc(F)c(F)c1Nc1ccc(I)cc1F)N1CC(O)([C@@H]2CCCCN2)C1 |  | human patients | oral, dose not given, dose escalation, suspension | fatal adverse events | 0%
CCc1ccc(CC/C=C/c2ccc3c(c2)C(=O)CC3)cc1 |  | Sprague-Dawley rat, female | oral, 30 mg/kg/day, 14 days | GGT serum activity | 1 U/L
CO[C@H]1C[C@@H]2CC[C@@H](C)[C@@](O)(O2)C(=O)C(=O)N2CCCC[C@H]2C(=O)O[C@H]([C@H](C)C[C@@H]2CC[C@@H](OC(=O)NCCOCCOCCOCCOCCOCCOCCOCCOCCC(=O)N3CCc4cc(Cn5nc(-c6ccc7oc(N)nc7c6)c6c(N)ncnc65)ccc4C3)[C@H](OC)C2)C[C@@H](O)[C@H](C)/C=C(\C)[C@@H](O)[C@@H](OC)C(=O)[C@H](C)C[C@H](C)/C=C/C=C/C=C/1C | phase 1 dose escalation, item: nausea | advanced solid tumour patients | intravenous, 8 mg weekly, any grade | TRAE incidence | 37.5%
CC(=O)c1c(C)c2cnc(Nc3ccc(C4CCN(CCS(C)(=O)=O)CC4)cn3)nc2n(C2CCCC2)c1=O |  | HR+/HER2- advanced breast cancer patients | oral, dose not given, grade 3/4, total | patients with platelet count decreased | 1.2%
COc1ccc2nc3cc(Cl)ccc3c(Nc3cc(CN4CCCC4)c(O)c(CN4CCCC4)c3)c2n1 |  | mouse, blood | oral, 57 mg/kg | blood pH | 7.58
COc1ccnc(C(=O)N[C@H]2COC(=O)[C@H](Cc3ccccc3)[C@@H](OC(=O)C(C)C)[C@H](C)OC2=O)c1OCOC(=O)C(C)C | liver toxicity | mouse | 18 month | NOAEL | 5.27 mg/kg/day
NCCCC[C@@H]1NC(=O)[C@@H](Cc2c[nH]c3ccccc23)NC(=O)[C@H](c2ccccc2)NC(=O)[C@@H]2C[C@@H](OC(=O)NCCN)CN2C(=O)[C@H](Cc2ccccc2)NC(=O)[C@H](Cc2ccc(OCc3ccccc3)cc2)NC1=O |  | healthy human volunteers | 1950 µg twice daily | subjects with adverse event Diarrhoea | 86%
COc1cccc(Oc2ccccc2NC(=O)CNC(=O)c2cccc3ccccc23)c1 |  | esterase-deficient SCID mice, male | oral, 100 mg/kg/day, 14 days, toxicity study | serum cholesterol | 42 mg/dL and 53 mg/dL and 36 mg/dL

Excerpt of the above:
Structure (SMILES) | assay | test system | setting | endpoint | value
CN1CCN(c2cccc3c2CCN(C(=O)/C=C/c2c(-n4cnnn4)ccc(Cl)c2F)[C@@H]3C(=O)Nc2ccc(C(=O)O)cc2)C(=O)C1 |  | healthy human subjects | intravenous infusion, 25 mg/h, 2 h | deaths | 0%
